Assay results of several laboratories.
A part holds a random share of what one study measured.

Series 1
Target: Interferon regulatory factor 5, full length, phosphomimetic (IRF5, Homo sapiens, UniProt Q13568-2, residues 1-514, K96S/S451D/S453D/S456D/S462D)
Method: protein-binding microarray
Form: double-stranded DNA, one strand shown
Sample: in vitro
Tested at: 250 nM
Setting: 60-bp whole probe
With: salmon DNA 0.4 mg/ml
Relative to: random background probes
Reading: higher = stronger binding
Measurement: log fluorescence
Shared flanks, not repeated: GCCTAGCAC … GTCTTGATTCGCTTGACGCTGCTG
TCAATTCCAGGGTTTTATACTGTGCTA: 0.287 z-score
GACGGTATCGACACTGTGGACGTGCTA: 1.47 z-score
GACAAACTGAGTTTCGAGACGTGCTAG: 5.28 z-score
GACGCTATCCTACTGCTGACGTGCTAG: -0.257 z-score
GACGAACTGAATATCGAGACGTGCTAG: 1.03 z-score
TTAAGACTGGGACTGGGTTAGTGCTAG: -0.26 z-score
GACTATCTCAGTATCGAGACGTGCTAG: 2.14 z-score
GACGATTTCAGACTGGAGCCGTGCTAG: 0.0591 z-score
CCTGGACGGGAGTGCGGTGCGTGCTAG: -0.716 z-score
TTAGGTTTCAGGTTTCGGTTAGTGCTA: 8.47 z-score
GACGGTGTCCTTTTCCTGACGTGCTAG: 0.057 z-score
GACGGTTTCCTAATGCTGACGTGCTAG: 0.354 z-score
GACGGTTTCGCGTTTCGGGACGTGCTA: 3.4 z-score
GATGGACTGGGTATCGGGACGTGCTAG: 0.348 z-score
TCAGGTATCCTTCTCCTTTAGTGCTAG: 0.424 z-score
TCACCTCTGTTTTGAGCACTGTGCTAG: 0.252 z-score
TCACTCTTTGGCAAAGCCAGGTGCTAG: -0.248 z-score
CAGAAGCCAGAGAGGACAGGGTGCTAG: -0.453 z-score
GACAAACTGAGTCTCGAGACGTGCTAG: -0.0903 z-score

Series 2
Target: Runt-related transcription factor 1 (RUNX1, Homo sapiens, UniProt Q01196, residues 1-453, full length assumed)
Chain of UniProt Q01196 (whole entry, looked up): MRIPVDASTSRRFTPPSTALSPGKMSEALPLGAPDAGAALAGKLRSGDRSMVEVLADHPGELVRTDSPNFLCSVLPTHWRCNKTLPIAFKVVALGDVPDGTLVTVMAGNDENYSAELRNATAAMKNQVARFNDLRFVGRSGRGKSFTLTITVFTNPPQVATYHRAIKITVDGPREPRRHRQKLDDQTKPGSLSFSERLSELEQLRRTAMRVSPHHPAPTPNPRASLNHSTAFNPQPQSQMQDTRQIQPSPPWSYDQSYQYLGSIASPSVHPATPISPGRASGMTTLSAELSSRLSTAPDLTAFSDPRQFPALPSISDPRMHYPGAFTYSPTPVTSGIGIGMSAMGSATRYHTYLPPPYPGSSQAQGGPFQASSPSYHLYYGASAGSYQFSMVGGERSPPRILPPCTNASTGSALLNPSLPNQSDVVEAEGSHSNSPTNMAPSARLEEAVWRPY
Method: protein-binding microarray
Form: double-stranded DNA, one strand shown
Sample: in vitro
Tested at: not given
Setting: k-mer, scored over probes, only values ≥0.25
Reading: higher = stronger binding
Measurement: E-score
AACCACA: 0.487
GCCGCAA: 0.338
CGCGGTC: 0.302
TGCCGCA: 0.252
CAATACC: 0.276
TGCGGAA: 0.269
ACCGCGT: 0.275
AACCACT: 0.379
GTGGTCA: 0.314
AAACCGC: 0.478
GCGGTCA: 0.443
ACAAACC: 0.312
ACACACA: 0.25
CCACACA: 0.32
CCACGAA: 0.313
ACCACTA: 0.296
AAAACCA: 0.265

Series 3
Target: Sal-like protein 4, full length isoform B (SALL4, Homo sapiens, UniProt Q9UJQ4-2, residues 1-616)
Method: universal PBM
Form: double-stranded DNA, one strand shown
Sample: in vitro
Tested at: not given
Setting: 8-mer, flanks averaged, mean of replicates
Reading: higher = stronger binding
Measurement: E-score
TAACGGCA: -0.0151
CTATCATA: 0.275
ATTCAAAC: 0.304
AGGCGCTG: -0.156
CACCTCGA: -0.12
ACACGGGA: -0.137
CGGAGAGC: -0.117
CTGGCCAA: -0.184
AGAGGATA: 0.166
TATTCCAA: 0.251
CGATTCTA: 0.0167
CCTGGCAG: -0.164
TAGCTATA: 0.279
ATTCGTCC: 0.149
ATAAGGAG: 0.12
ACGTGAGT: 0.00663
ACAGGAGG: -0.173
ATAAAAAC: 0.365
AAACGCTG: -0.0889
AAACTTCA: 0.212
ATCCGGAG: -0.0166
CCACAGGC: -0.353
AAACGTGG: -0.0487

Series 4
Target: Prothrombin, mature alpha-thrombin (F2, Homo sapiens, UniProt P00734)
Method: aptamer microarray, sandwich
Form: DNA with 2'F-ANA
Sample: in vitro
Tested at: 200 nM
Setting: whole 15-mer aptamer, many near background
With: Cy3 exosite-II aptamer, 400 nM
Reading: higher = stronger binding
Measurement: mean fluorescence intensity
Strand: GGTTGGTGTGGTTGG
2'F-ANA at 1 4 5 7 9 13 15: 48.5 a.u.
2'F-ANA at 2 3 5 8 13 14: 59 a.u.
2'F-ANA at 8 9 11 13 14: 171 a.u.
2'F-ANA at 2 4 6 9 14: 78.8 a.u.
2'F-ANA at 1 3 4 7 8 11 12 13 15: 303 a.u.
2'F-ANA at 1 2 5 6 9 10 11 12 14 15: 50.2 a.u.
2'F-ANA at 1 3 5 7 11 12 13: 76.1 a.u.
2'F-ANA at 2 4 6 9 11 13: 148 a.u.
2'F-ANA at 1 2 3 4 6 9 10: 153 a.u.
2'F-ANA at 1 2 4 5 6 9 11 13 14: 48.6 a.u.
2'F-ANA at 1 2 5 8 10 11 12 14: 101 a.u.
2'F-ANA at 1 3 6 7 9 12 13 15: 362 a.u.
2'F-ANA at 1 3 7 8 9 10 12 13 14: 65.6 a.u.
2'F-ANA at 3 7 8 9 12 15: 1560 a.u.
2'F-ANA at 1 2 3 5 7 9 11 12 14: 97.8 a.u.
2'F-ANA at 1 2 9 11 13 14: 60.4 a.u.

Series 5
Target: RING finger protein unkempt homolog, zinc fingers 1-6, GST-SBP tag (UNK, Homo sapiens, UniProt Q9C0B0, residues 30-357)
Chain of UniProt Q9C0B0 (30-357, looked up): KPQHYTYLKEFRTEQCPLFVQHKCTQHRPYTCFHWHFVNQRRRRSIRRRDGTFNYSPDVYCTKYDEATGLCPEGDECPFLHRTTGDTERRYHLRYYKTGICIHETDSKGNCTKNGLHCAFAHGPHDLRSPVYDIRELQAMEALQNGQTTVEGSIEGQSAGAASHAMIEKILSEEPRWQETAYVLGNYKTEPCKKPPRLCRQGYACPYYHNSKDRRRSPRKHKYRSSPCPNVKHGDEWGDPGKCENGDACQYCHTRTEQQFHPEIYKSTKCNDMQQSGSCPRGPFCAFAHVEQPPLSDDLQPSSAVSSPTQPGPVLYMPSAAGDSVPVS
Method: RNA Bind-n-Seq
Form: RNA
Sample: in vitro
Tested at: not given
Setting: RNA with constant flanks, human and mouse sites, ends assumed
Relative to: input RNA pool
Reading: higher = stronger binding
Measurement: bound/input enrichment
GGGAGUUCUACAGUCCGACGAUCUGGACUGAUCAAUAUGAAGAAGCUUUCACUAAUCAGUACAGUGCAGAUGUACAGAAUGCCCUUGAGCAACAUCUCCAUUCUAACAAGGAAUUUGUGGGCAAACCUGCAAUUUUAGACACUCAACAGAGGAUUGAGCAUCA: 0.279 ratio
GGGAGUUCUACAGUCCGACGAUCGAUAUGAAGCACUGGCCCUUCAUGGUGGUGAAUGAUGCAGGCAGGCCCAAGGUCCAAGUGGAAUACAAAGGGGAGACAAAAAGUUUCUACCCAGAGGAAGUGUCCUCCAUGGUUCUGACACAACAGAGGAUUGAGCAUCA: 0.193 ratio
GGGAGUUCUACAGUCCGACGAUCGCAGGGCAAGAGGAUUAUGACAGAUUACGACCGCUGAGUUAUCCACAAACAGAUGUAUUUCUAGUCUGUUUUUCAGUGGUCUCUCCAUCUUCAUUUGAAAACGUGAAAGAAAAGUGGGUGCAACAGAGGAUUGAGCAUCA: 0.518 ratio
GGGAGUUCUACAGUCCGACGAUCUAUUUCAGUGUCAUGGACUUCCUCAAAAUGAAGUGCUAUUUUCUUAUUUUUAAUCAAAUAACUAGACAUAUAUCAGAAACUUUAAAAUGUAAAAGUUGUACACUUUCAACAUUUUAUUACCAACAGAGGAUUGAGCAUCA: 5.56 ratio
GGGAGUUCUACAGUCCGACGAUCCACAGAGGAGACCUCCUGUUCCUCACAAAUUUCCGGGAAGACCCAAUCAGAGCUGGUGAAAUAGUUGUUUUUAAAGUUGAAGGACGAGACAUUCCAAUAGUUCACAGAGUAAUCAAAGUUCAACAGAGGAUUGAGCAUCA: 3.82 ratio
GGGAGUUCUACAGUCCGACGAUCGACAGUGAAGAAGAGAUUAGAGAAGCAUUCCGUGUGUUUGAUAAGGAUGGCAAUGGCUAUAUUAGUGCAGCAGAGCUUCGCCAUGUGAUGACAAACCUUGGCGAGAAGUUAACAGAUGAACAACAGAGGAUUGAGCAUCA: 1.05 ratio
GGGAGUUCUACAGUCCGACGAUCGUUGGAAUGGGGAGGAGGAAGCUUUUUUUUUUUUAAUUUUUUAAAAAAUCAUAUCUGCUAAUUUAAGAGUGAGAUUUGCUUUAUGGAAGUCAACUCAAUAAAAACUGCAUUCGAGUUGCACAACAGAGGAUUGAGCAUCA: 1.1 ratio
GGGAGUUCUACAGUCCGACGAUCUUAUUUGCGCAUUUCAAGAAGAACAACCUAACUCCAGAUAUCUACCUAAUUGAUUGGAUCUUUACCUUAUAUAGUAAAUCUCUGCCCCUCGACCUGGCCUGUCGUAUCUGGGACGUGUUCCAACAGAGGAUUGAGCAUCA: 0.57 ratio
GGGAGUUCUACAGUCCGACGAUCCCUAGUCAUUCAUUGCUAACAGGGGAUCAUGAGGGACCCUGUAAGUAGCCAGUACAGCUCCUUUCUUUUCUGGAGGAUGCCCAUCCCAGAACUGGAUCUGUCGGAGCUGGAAGGCCUGGGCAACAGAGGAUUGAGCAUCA: 0.324 ratio
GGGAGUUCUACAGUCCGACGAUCCAGAAGCUGUUGAAGUCUUGUUGAAUUAUGCCUACACUGCUCAGUUGAAAGCAGAUAAGGAAUUGGUAAAAGAUGUUUAUUCUGCAGCAAAAAAGCUGAAGAUGGAUCGAGUAAAGCAGGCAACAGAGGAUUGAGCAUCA: 0.136 ratio
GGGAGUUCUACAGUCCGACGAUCAAUCCUCAACUUGUUCUAGCUUGUGAUCCCUCAAAGUUGGGUCAUACGUUAGUGCUAGAUACUAGAAAUUUUCACUUUUCCACUGAUCAGAGAGACAGACAUUAAAAACAAAAAUAGAAGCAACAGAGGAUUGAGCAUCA: 10.6 ratio

Series 6
Target: Histone acetyltransferase KAT6A, both winged helices, GST fusion (KAT6A, Homo sapiens, UniProt Q92794, residues 1-181)
Method: protein binding microarray
Form: double-stranded DNA, one strand shown
Sample: in vitro
Tested at: not given
Setting: 8-mer, flanks averaged, mean of 2 arrays, mostly near background
Relative to: not given
Reading: higher = stronger binding
Measurement: E-score
Residues (chain): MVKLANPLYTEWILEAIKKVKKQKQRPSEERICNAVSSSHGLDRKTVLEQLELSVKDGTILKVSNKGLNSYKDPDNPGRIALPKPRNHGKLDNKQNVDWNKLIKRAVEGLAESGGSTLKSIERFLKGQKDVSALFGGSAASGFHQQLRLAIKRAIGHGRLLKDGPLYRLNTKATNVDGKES
AAAAGTAC: 0.0116
ATTGTAAG: -0.0692
GAGAAAAA: -0.0111
ACGTATAT: -0.0776
GCCTTAAC: -0.0687
ATCTGCGG: 0.151
TCTGACCA: -0.0585
CGTTTCCC: 0.0863
ATGAACCC: 0.00136
CAAGCGGA: 0.0948
CAGATATA: -0.0579
TAACATTA: -0.114
ACTGTCCG: 0.183
AACGCCAG: -0.0683
AAGAGGGA: -0.274
CCCGACGC: 0.311
AAGACCAC: -0.138
GCCGGCCC: 0.307
CTCCTCTC: -0.0164
ACAAGCCC: -0.0461
CACACACG: 0.133
CGTAAGAG: -0.0118

Repeated from above (series 3):
AGGCGCTG: -0.156
CACCTCGA: -0.12
ACACGGGA: -0.137
CGGAGAGC: -0.117
CTGGCCAA: -0.184
AGAGGATA: 0.166
TATTCCAA: 0.251
CGATTCTA: 0.0167
CCTGGCAG: -0.164
TAGCTATA: 0.279
ATTCGTCC: 0.149
ATAAGGAG: 0.12
ACGTGAGT: 0.00663
ACAGGAGG: -0.173
ATAAAAAC: 0.365
